Published values pooled from the literature.
A part holds a random share of what one study measured. Positions count from the first letter of the parent shown.

Study 1
Target: PABPC1L2, full length, GST fusion (mouse, UniProt A0ABA7IW68)
Technique: RNAcompete
Molecule type: RNA
Sample: in vitro
Tested at: 20 nM
Setting: 7-mer, probes averaged, single round
Reference: mean of 7-mers
Direction: higher = stronger binding
Measurement: 7-mer Z-score
Residues (chain): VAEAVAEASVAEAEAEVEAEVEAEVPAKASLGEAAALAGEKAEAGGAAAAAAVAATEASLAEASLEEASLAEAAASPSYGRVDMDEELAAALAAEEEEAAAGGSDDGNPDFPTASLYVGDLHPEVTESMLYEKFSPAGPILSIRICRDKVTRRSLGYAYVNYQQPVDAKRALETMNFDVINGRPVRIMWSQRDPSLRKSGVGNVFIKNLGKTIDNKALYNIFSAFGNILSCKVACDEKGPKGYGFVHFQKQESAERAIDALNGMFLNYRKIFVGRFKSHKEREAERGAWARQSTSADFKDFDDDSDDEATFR
AGAAAAG: 2.88
GGUGUUC: -0.318
GGACCCU: -0.11
UGAUCUC: -0.396
ACCGCGU: -0.17
CGACUUA: -0.153
CGUAAUC: -0.398

Study 2
Target: ABI1, truncated, D143A, DHFR fusion (Arabidopsis thaliana)
Technique: DHFR PCA, deep sequencing
Sample: yeast
Setting: methotrexate growth selection, single substitutions
Added: (+)-ABA 0.11 µM
Reference: wild-type fitted maximum
Direction: higher = stronger binding
Measurement: relative binding score
Starting sequence: PYL1, truncated, DHFR fusion (Arabidopsis thaliana); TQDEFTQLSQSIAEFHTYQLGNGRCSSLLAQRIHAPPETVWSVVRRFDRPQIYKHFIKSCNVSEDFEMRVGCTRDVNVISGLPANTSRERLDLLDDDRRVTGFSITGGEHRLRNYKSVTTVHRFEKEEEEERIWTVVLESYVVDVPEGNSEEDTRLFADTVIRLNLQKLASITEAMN; partner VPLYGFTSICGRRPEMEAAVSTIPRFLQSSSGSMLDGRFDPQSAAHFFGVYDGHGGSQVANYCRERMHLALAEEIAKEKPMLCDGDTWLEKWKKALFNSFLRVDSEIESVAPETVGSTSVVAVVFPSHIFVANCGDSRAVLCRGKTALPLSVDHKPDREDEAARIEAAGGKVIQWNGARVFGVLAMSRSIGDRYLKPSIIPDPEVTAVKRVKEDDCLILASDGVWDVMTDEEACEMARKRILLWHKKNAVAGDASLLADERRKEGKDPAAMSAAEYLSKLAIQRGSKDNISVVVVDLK
D144M: 4.55%
E151G: 6.37%
P83L: 3.52%
S140Q: -7.1%

Study 3
Target: CCND3, cyclin fold, Cln2 fusion (human)
Technique: yeast growth competition, sequencing
Sample: yeast
Setting: weak parent motif
Reference: not given
Direction: higher = stronger binding
Measurement: normalised enrichment score
Starting sequence: CDKN1B docking peptide (human); PSACRNLFGPVDH
PSANRNLFGPVDH [C4N]: 0.0957
PSACRNLQGPVDH [F8Q]: 0.152
PSACRNLFTPVDH [G9T]: 0.122
PSACRNLFGPMDH [V11M]: 0.135
PSACRNLFGPEDH [V11E]: 0.127
PSQCRNLFGPVDH [A3Q]: 0.143
PSACRNLFGPKDH [V11K]: 0.0994

Single results of other studies
PhoQ, residues 284 288 289 292 302 303 SLSLLA
fold induction (PhoP, residues 12 14 15 18 19 DLLYY (Escherichia coli, UniProt P23836); Sort-seq, refers to: YFP reporter; E. coli; PhoQ-PhoP variant library, added: 10 µM Mg2+; reference: high Mg2+ state, higher = stronger signaling): 0.851

A few entries again (study 2):
E151G: 6.37%
P83L: 3.52%
